Measurements pooled from the literature.
Parts stem from different laboratories: compare values within a part only.

Sample 1
Target: RNA binding protein fox-1 homolog 2, RRM domain, GST-SBP tag (RBFOX2, Homo sapiens, UniProt O43251-10, residues 100-194)
Method: RNA Bind-n-Seq
Molecule type: RNA
Sample: in vitro
Concentration: 365 nM
Setting: natural RNA segment, single round, ends assumed
Baseline: no-protein control
Reading: higher = stronger binding
Shared flanks, not repeated: GGGAGUUCUACAGUCCGACGAUC … UGGAAUUCUCGGGUGCCAA
Construct (chain): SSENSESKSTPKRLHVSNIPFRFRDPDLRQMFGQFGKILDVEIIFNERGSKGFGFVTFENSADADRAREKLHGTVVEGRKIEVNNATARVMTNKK
| Strand | RBNS enrichment (R) |
| --- | --- |
| GGGGCCAGCAGAAAGAAGACAGGCUGUCCAGGCCGCACCCGCUGCAGUGGGGCACCAGCCGGCCACACCCAUUGCCUCGGCUGCCUCUUCAUAGACUCUUGCUGCCCAGC | 0.438 |
| UUUCUUACUUCAGGGAGGGGACAGUGGAAAUGCUGCAGGUCUCUGUCUUGGACACUGCAGAGUGCUGGGGACAGGGGUCACCGGUGUGGACCCUGCAGAGUGCUGGGGAC | 0.373 |
| CAACGUAACUACUGCUCCCCUCUCCUCCGACGCUCCCCCGCGGGGCUCCGGAGGGGACCCAGCUCCUCUGAGCCAUACCAACCAUCGUCCAGCCCUCCUGCACGGAUGCU | 0.197 |
| UGCCUAUAGCCCUUUACCCUGAGCACCACCCCAACAGACUGGGGACCAGCCCCCUCGCCUGCCUGUGUCUCUCCCCAAACCCCUUUAGAUGGGGAGGGAAGAGGAGGAGA | 0.488 |
| CGGAUUUCUGAGUUUGAGGCCAGCCUGGUCUACAGAGUGAGUUCGAGGACAACCAGGGCUACACAGAGAAACCCUGUCUCGAAAACCAAAAACAAAAAAAAAGAACUCCA | 0.55 |
| GAUCAGCGGUUCUUUUUGCAGCAAAGCCUGCAUCUGUGUUGACUUGCAAGAUUUUGCGUUUAUUCAGGCAAAAACUGGUCAAAAUGGUUACUACAUGAUUUGUUCCCAGA | 0.304 |
| UUUCCCCACUCACUUUUUAUUUUUUAAUGAUAAUGGAGAUGUCUGGACCCUUCCUCACCCCACCUGUCGGUCUUGUCCUGGCUCUGCCUGUCCCCCACCGUUGUUCUCGU | 0.603 |
| CCCUCGUUCUCGGUCCUGCCUGGAACCUUUGUACGCUUUGCUCAAAAAUCAGCGAGCCUUCGCAUUUGAUGCCAAGUUUUUGUUACAGAUUAAUUUUUCCAUAAAACCAU | 0.309 |

Sample 2
Target: Histone acetyltransferase KAT6A, winged helix 2, GST fusion (KAT6A, Homo sapiens, UniProt Q92794, residues 85-181)
Method: protein binding microarray
Molecule type: double-stranded DNA, one strand shown
Sample: in vitro
Concentration: not given
Setting: 8-mer, flanks averaged, mean of 2 arrays, mostly near background
Baseline: not given
Reading: higher = stronger binding
Target sequence (chain): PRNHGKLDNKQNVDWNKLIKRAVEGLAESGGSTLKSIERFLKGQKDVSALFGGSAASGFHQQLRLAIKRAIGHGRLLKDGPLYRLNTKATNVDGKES
| Strand | E-score |
| --- | --- |
| CCCCACAA | 0.0881 |
| GCTGGACC | 0.0931 |
| CTTTTAGA | 0.0778 |
| CGGCTCGC | 0.0767 |
| ACAGTCTC | -0.246 |
| CCGGGGTC | 0.166 |
| TACTACGA | -0.162 |
| ACCAAACG | 0.00941 |
| GGAGGGGA | 0.242 |
| TGCACACA | -0.106 |
| CAATTGTG | -0.105 |
| AAAGAACG | -0.00284 |
| CCTAACCC | -0.269 |
| AATGGGGG | -0.147 |
| ATGCGTCG | -0.0276 |
| GAGTAGTA | -0.116 |
| AGCCCATC | -0.12 |
| TCGGGCCA | 0.0591 |
| ACGGTTCA | -0.273 |
| GAGGGCGA | -0.154 |
| AACTATGG | -0.124 |
| CTCCATAA | 0.0314 |
| GTCAACCA | -0.0726 |
| ACCCGAAC | 0.101 |
| CTCGCAAA | 0.0262 |

Sample 3
Target: Sal-like protein 4, full length isoform B (SALL4, Homo sapiens, UniProt Q9UJQ4-2, residues 1-616)
Method: universal PBM
Molecule type: double-stranded DNA, one strand shown
Sample: in vitro
Concentration: not given
Setting: 8-mer, flanks averaged, mean of replicates
Reading: higher = stronger binding
Construct (chain): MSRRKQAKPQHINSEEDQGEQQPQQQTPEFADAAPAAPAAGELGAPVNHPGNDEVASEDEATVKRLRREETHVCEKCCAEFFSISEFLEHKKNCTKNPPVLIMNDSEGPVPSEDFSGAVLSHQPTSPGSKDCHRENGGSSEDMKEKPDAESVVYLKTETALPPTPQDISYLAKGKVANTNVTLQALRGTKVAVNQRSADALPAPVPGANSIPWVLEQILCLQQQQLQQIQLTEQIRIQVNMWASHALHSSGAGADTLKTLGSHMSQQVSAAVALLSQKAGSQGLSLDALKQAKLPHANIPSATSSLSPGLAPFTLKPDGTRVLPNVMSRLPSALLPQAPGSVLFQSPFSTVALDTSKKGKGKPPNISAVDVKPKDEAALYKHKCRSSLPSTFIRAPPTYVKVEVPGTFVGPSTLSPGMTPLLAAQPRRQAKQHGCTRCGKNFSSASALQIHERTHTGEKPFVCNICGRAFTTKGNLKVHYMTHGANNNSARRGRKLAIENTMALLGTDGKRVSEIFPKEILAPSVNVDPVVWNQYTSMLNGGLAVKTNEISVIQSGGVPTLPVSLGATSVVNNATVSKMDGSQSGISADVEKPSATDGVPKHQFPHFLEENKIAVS
| Strand | E-score |
| --- | --- |
| ATTTACTC | 0.146 |
| ACCGGAGC | -0.294 |
| AAGCACGC | -0.171 |
| ATCCAGGA | -0.0704 |
| CGTGGAAA | 0.153 |
| CTAGGGTA | -0.188 |
| CACTGCGC | -0.296 |
| CCTCAATA | 0.117 |
| ATAAGAAA | 0.326 |
| GCACTACC | -0.0088 |
| ACCCACTC | -0.0468 |
| ACTATCCC | -0.0886 |
| GTCAATGA | 0.0604 |
| ACCGCCCG | -0.264 |
| CACCTGAA | 0.11 |
| CGGTCCAA | -0.224 |
| AAATCATC | 0.155 |
| GACGTAGA | -0.0799 |
| ACGGCGAG | -0.193 |
| CACACACC | -0.0469 |

Sample 4
Target: Interferon regulatory factor 7, full length, phosphomimetic (IRF7, Homo sapiens, UniProt Q92985, residues 1-503, S471D/S472D/S475D/S476D/S477D/S483D/S484D/S487D)
Method: protein-binding microarray
Molecule type: double-stranded DNA, one strand shown
Sample: in vitro
Concentration: 2200 nM top
Setting: 60-bp whole probe
Together with: salmon DNA 0.4 mg/ml
Baseline: random background probes
Reading: higher = stronger binding
Shared flanks, not repeated: GCCTAGCAC … GTCTTGATTCGCTTGACGCTGCTG
Construct (chain): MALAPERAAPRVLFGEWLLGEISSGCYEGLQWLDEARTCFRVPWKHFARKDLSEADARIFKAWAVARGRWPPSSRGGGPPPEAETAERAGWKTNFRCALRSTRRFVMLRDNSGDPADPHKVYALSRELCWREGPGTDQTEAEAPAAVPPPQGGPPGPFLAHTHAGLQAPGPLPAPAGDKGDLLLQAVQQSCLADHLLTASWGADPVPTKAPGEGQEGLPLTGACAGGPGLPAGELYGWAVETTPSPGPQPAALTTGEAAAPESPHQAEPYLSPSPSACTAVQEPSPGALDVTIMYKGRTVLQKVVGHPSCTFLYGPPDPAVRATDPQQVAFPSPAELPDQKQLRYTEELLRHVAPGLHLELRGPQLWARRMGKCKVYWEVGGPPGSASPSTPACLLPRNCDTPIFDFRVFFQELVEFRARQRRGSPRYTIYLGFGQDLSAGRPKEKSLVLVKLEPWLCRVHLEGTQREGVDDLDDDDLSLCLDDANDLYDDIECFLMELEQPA
| Strand | fitted relative affinity [z-score] |
| --- | --- |
| CTAGATATCGGGACTGGATTAGTGCTA | -0.0208 |
| TGTGGTGCAGCTCCCTCCTCGTGCTAG | 0.0277 |
| GACGAACTGCGACTGGAGACGTGCTAG | -0.0118 |
| TTAGGTCTCAGTCTCGATTAGTGCTAG | 0.512 |
| TCATGTTTACAGATGTTACTGTGCTAG | 1.23 |
| GACAGTATCGGACTGGGGACGTGCTAG | -0.218 |
| TCAAAAATGATGTTTTAGACTGTGCTA | -0.821 |
| TTAGGACTGGACTATCGGTTCGTGCTA | 0.451 |
| TCACCTTCCTCTTTTACACTGTGCTAG | 3.19 |
| GACGGTAGCGGTCTCGGGACGTGCTAG | -0.739 |
| TTAGATATCGGGACTAGATTAGTGCTA | -0.331 |
| TCATGTTTCTCAACCAGACTGTGCTAG | 1.85 |
| GACCAACTGGGGACTGGAGACGTGCTA | -0.673 |
| GACGGGATCGACTTTCGGGACGTGCTA | 2.39 |
| TTAGAGCTGGGGTTTCGATTAGTGCTA | 1.59 |
| CTGCTGATCGGTTGGGGTGGGTGCTAG | 0.0556 |
| GACGATATCAGTCTTGAGACGTGCTAG | 0.332 |
| TTAGGTCACGGTCTCGGTTAGTGCTAG | 0.239 |
| TTAGGTCTCCTTATCCTTAAGTGCTAG | 0.898 |

A few entries again (sample 2):
| Strand | E-score |
| --- | --- |
| CCGGGGTC | 0.166 |
| TACTACGA | -0.162 |
| ACCAAACG | 0.00941 |
| GGAGGGGA | 0.242 |
| TGCACACA | -0.106 |
